Published values of several laboratories.
Parts stem from different laboratories: compare values within a part only. Positions count from the first letter of the parent shown.

Series 1
Organism: Saccharomyces cerevisiae
Effect on: binding
Technique: yeast competitive growth sequencing
Molecule type: peptide
Strain: cyclin B3-Cln2 fusion strain
Notes: peptide tiling library
Direction: direction not given
Endpoint: enrichment score
GFGFLLFICKLTF: 0.0815
VSRNLRSSLKSSLHTL: -2.18
RRVLCFDS: -0.729
RKLHFEDEVT: 0.233
LRRKLFLDGNGSIS: -0.847
LRRQLSFSED: -0.384
PQWPCGKHKRVLIFAS: -1.42
ARKRLELGNLGNPQ: -1.21
KVKRRLDLDIDGLQKE: -1.08

Series 2
Target: Histone acetyltransferase KAT6A, winged helix 1, GST fusion (KAT6A, Homo sapiens, UniProt Q92794, residues 1-85)
Technique: protein binding microarray
Molecule type: double-stranded DNA, one strand shown
Sample: in vitro
Concentration: not given
Notes: 8-mer, flanks averaged, mean of 2 arrays, mostly near background
Baseline: not given
Direction: higher = stronger binding
Endpoint: E-score
Construct (chain): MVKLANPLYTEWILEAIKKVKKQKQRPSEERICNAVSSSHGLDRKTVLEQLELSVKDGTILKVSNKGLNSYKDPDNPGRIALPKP
ACAAAAAG: -0.0528
GACAGACA: 0.0745
ATGACGGC: 0.355
GATATAGC: 0.00443
ACAATGCC: 0.0877
CCCTGGCA: -0.153
AAGCACAT: -0.0626
ATCCTTCA: -0.157
ATCTAGGA: -0.0556
ACAACGAT: 0.0264
ATGGATTC: -0.253
TCCGAAAA: -0.0881
CTATGGTC: -0.126
AATTACGG: 0.273
GGATACCA: 0.0897
ATTAAAAC: 0.026
ACGGCTGA: 0.219
CAGATCGC: 0.182
GTGGAGTA: -0.179

Series 3
Target: Phosphate system positive regulatory protein PHO4, full length, GST-tagged (PHO4, Saccharomyces cerevisiae, UniProt P07270, residues 1-312)
Technique: competition protein-binding microarray
Molecule type: double-stranded DNA, one strand shown
Sample: in vitro
Concentration: 2 µM
Notes: whole 60-bp probe, lowest competitor level
Added: Cbf1 competitor, 0.05 µM
Direction: higher = stronger binding
Endpoint: fluorescence intensity
Target sequence (chain): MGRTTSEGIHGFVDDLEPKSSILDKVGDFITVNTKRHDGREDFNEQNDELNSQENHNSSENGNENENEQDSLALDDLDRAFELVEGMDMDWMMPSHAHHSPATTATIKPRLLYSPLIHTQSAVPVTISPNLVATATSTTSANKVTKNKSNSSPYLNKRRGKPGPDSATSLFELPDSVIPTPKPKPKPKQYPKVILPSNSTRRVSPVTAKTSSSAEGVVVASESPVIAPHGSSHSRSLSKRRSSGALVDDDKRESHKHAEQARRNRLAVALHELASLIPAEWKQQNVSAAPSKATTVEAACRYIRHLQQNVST
GAACCGGTAAGCCTACACGTCTAGGTGCATTCAACGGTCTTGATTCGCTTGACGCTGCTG: 4220 a.u.
TTTTTTTCCCAGAGACGCGTGGAAGCACCCATGGATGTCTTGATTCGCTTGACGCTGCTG: 7110 a.u.
AAAGCGGTAATTTGTCACTTTACTTCACATATCTATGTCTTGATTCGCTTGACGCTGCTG: 2970 a.u.
AATGCCAGATTCGTTTTCGTGACAAACTTTAGCATAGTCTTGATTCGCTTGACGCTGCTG: 3720 a.u.
GCTGCTAACGATCAACACCTGACCGAGATAACAGCAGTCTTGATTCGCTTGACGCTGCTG: 4050 a.u.
CATACCCAACCTTGTGGTGTGGGTGAAGATATTTGTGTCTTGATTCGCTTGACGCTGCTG: 7220 a.u.
CATACCCAACCTTGGATAGTGGGTGAAGATATTTGTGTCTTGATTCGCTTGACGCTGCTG: 3790 a.u.
CTTCTCTTCTTCACCGGCGTGATGGGCTGCGTAACAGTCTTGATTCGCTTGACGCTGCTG: 5930 a.u.
AAATTACTAAGTTGGCACGTGTTTTACCCCGTATGAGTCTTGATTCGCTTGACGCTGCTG: 22900 a.u.
GTATCCGCACCGCAGTTCGTGACAAGTGCCTGCGTTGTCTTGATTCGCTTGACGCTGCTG: 5620 a.u.
GTCTTGTCTCATTGAGAGGTGGGTGTCCCCACTTCAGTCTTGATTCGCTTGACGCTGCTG: 4520 a.u.
CTGGAAGAGACCCACCATGTGGGATAGATCCCTGTAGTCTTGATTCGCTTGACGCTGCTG: 9970 a.u.
TGAGGGTTATCCAAGCGCATGACAATAAATGAGCGGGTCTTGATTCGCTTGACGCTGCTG: 6230 a.u.
TTACAGGTCGTCTTCCACGTGGTGAGTATCAAAGTAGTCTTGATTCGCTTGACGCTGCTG: 18200 a.u.
GTCTTGTCTCATTGGGTAGTGGGTGTCCCCACTTCAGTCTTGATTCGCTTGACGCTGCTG: 5150 a.u.
ACCTTTGGAACTCACCAGGTGATATATTCATCAGCAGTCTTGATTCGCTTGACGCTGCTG: 3980 a.u.

Series 4
Target: ABI1, truncated, D143A, DHFR fusion (Arabidopsis thaliana)
Technique: DHFR PCA, deep sequencing
Sample: yeast
Notes: methotrexate growth selection, single substitutions
Added: (+)-ABA 17 µM
Baseline: wild-type fitted maximum
Direction: higher = stronger binding
Endpoint: relative binding score
Starting sequence: PYL1, truncated, DHFR fusion (Arabidopsis thaliana); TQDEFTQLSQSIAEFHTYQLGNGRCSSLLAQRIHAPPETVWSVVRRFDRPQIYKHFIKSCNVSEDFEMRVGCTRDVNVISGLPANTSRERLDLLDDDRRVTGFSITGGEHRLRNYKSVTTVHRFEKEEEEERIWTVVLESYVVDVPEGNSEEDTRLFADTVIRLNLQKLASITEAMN; partner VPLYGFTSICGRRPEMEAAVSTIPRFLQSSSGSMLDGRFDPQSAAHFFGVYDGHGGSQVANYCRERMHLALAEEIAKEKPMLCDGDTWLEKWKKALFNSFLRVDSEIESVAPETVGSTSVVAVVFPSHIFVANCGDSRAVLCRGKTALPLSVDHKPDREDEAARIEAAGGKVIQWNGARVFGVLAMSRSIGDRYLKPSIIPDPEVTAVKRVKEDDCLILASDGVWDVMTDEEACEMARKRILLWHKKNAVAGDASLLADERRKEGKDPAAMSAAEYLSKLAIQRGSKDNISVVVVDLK
I105A: 10.9%
T135A: 54.1%
L93P: 19%
Q51I: 3.79%
E127F: 78.3%
D3R: 74.3%
D144C: 29.7%
N165W: -3.43%
R45C: 18.5%
R69F: 55.6%
D75W: 81.8%
N149L: 8.49%
T119W: -15.8%
L20K: 86%
Q19L: 64.3%
A175N: 92.3%
V78R: 7.86%

Series 5
Target: Interferon regulatory factor 7, full length, phosphomimetic (IRF7, Homo sapiens, UniProt Q92985, residues 1-503, S471D/S472D/S475D/S476D/S477D/S483D/S484D/S487D)
UniProt Q92985, sequence (whole entry, unmodified, looked up): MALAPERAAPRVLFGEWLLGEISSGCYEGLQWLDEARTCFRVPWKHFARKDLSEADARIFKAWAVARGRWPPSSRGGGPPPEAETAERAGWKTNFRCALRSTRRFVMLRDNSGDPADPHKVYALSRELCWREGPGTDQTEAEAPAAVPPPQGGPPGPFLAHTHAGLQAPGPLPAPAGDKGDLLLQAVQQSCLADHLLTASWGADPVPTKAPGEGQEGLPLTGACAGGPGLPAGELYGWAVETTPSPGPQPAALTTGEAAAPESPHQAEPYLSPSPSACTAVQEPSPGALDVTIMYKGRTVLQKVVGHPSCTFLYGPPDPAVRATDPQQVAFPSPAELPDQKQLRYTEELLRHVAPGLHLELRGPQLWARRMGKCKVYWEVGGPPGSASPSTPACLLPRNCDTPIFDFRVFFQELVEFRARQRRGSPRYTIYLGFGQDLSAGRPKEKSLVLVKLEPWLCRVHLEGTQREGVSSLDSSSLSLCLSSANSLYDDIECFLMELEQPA
Technique: protein-binding microarray
Molecule type: double-stranded DNA, one strand shown
Sample: in vitro
Concentration: 2200 nM top
Notes: 60-bp whole probe
Added: salmon DNA 0.4 mg/ml
Baseline: random background probes
Direction: higher = stronger binding
Endpoint: fitted relative affinity
All sequences stand within: GCCTAGCAC … GTCTTGATTCGCTTGACGCTGCTG
TTAGGTTTAGACACTGGGTTAGTGCTA: -0.357 z-score
TCATATATTTGCTTCAGACTGTGCTAG: 1.23 z-score
TTAGAACTGGAGACTGGATTAGTGCTA: -0.9 z-score
TAAGGTATCGGTATCGGTTAGTGCTAG: 0.876 z-score
TCCCCTTCTACTCTCCTGCAGTGCTAG: 2.11 z-score
GACGTTATCGGACTGGGGACGTGCTAG: -0.056 z-score
TCATGACACCGATTTCATACTGTGCTA: 1.18 z-score
GACGCTTTCCTTCTCCTGACGTGCTAG: 3.53 z-score
TTAGGCATCGACACTGGGTTAGTGCTA: -0.784 z-score
GGCGAACTGAGTTTCGAGACGTGCTAG: 1.66 z-score
GACGATATCAGTTTCTAGACGTGCTAG: 1.52 z-score
TTAGATTTCGGGACTGGATAAGTGCTA: 0.827 z-score
TTAGGTTCCGGACTGGGTTAGTGCTAG: 0.204 z-score
GACGGACTGGCACTGGGGACGTGCTAG: -0.965 z-score
TTAGGTCTTGGACTGGGTTAGTGCTAG: -0.331 z-score
TTAGGTTTCCTACTGCCTTAGTGCTAG: 1.2 z-score
GACGATATCGGGTATCGAGTCGTGCTA: 0.528 z-score
GACGATTTCAGTATCGGGACGTGCTAG: 0.858 z-score
TTAGGTTCCGGTTTCGGTTCGTGCTAG: 14.8 z-score
GAGGAACTGAGTCTCGAGACGTGCTAG: -0.351 z-score
TCAGTTTCCAAATTGTCACTGTGCTAG: 3.51 z-score
TAAGGACTGGGGTATCGGTTAGTGCTA: -0.399 z-score
GAGGGTCTCCTTATCCTGACGTGCTAG: 0.706 z-score
GACGGTTCCGACACTGGGGACGTGCTA: -0.245 z-score
TTAGGTTCCCTTTTCCTATAGTGCTAG: 2.99 z-score

Series 6
Target: CREM, bZIP domain (human)
Technique: DHFR protein complementation
Sample: yeast
Notes: single substitutions, most at no-binding floor
Baseline: wild-type JUN-FOS pair
Direction: higher = stronger binding
Endpoint: binding fitness
Starting sequence: JUN, bZIP domain (human); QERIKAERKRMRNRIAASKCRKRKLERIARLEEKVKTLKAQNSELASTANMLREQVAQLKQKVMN; partner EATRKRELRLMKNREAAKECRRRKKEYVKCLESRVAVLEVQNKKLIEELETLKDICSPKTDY
Q55H: -1.47 natural log
K34C: -1.61 natural log
E33D: -1.49 natural log
L38C: -1.58 natural log
S47I: -1.41 natural log
A49P: -1.56 natural log
N42A: -1.44 natural log
L45Y: -1.26 natural log
E54A: -1.45 natural log
T48H: -1.37 natural log
L38E: -1.5 natural log
A57G: -1.43 natural log
A46P: -1.47 natural log
K36M: -1.35 natural log
L45S: -1.53 natural log
